Measured values collected from several papers.
A part holds a random share of what one study measured.
Sequence of UniProt O15197 (whole entry, looked up): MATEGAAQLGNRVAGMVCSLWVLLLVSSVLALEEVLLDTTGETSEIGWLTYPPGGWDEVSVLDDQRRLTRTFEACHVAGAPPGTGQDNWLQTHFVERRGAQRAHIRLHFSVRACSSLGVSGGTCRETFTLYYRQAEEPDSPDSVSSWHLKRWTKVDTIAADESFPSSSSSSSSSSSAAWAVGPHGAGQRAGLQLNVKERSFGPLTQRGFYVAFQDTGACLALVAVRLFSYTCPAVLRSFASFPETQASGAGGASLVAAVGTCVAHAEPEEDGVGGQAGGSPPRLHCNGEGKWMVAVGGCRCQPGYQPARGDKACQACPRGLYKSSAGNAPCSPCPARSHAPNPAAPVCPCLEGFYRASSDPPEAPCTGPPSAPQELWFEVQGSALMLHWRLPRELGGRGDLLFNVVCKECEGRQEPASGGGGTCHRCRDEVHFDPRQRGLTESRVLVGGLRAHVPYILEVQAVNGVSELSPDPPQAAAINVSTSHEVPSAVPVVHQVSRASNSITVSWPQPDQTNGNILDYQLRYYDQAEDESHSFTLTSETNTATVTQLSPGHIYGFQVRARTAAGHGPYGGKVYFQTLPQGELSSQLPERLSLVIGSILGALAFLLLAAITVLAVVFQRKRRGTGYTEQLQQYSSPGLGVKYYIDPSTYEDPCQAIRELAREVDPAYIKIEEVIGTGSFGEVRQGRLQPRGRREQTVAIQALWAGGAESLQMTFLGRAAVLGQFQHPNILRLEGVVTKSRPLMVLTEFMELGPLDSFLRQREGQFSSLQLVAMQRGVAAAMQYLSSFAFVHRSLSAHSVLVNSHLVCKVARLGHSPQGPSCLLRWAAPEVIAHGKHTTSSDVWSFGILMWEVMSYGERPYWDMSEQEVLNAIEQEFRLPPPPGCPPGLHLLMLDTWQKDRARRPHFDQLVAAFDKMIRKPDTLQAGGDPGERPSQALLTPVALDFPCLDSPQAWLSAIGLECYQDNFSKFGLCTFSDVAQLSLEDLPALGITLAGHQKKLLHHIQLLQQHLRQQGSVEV
Sequence of UniProt Q13523 (whole entry, looked up): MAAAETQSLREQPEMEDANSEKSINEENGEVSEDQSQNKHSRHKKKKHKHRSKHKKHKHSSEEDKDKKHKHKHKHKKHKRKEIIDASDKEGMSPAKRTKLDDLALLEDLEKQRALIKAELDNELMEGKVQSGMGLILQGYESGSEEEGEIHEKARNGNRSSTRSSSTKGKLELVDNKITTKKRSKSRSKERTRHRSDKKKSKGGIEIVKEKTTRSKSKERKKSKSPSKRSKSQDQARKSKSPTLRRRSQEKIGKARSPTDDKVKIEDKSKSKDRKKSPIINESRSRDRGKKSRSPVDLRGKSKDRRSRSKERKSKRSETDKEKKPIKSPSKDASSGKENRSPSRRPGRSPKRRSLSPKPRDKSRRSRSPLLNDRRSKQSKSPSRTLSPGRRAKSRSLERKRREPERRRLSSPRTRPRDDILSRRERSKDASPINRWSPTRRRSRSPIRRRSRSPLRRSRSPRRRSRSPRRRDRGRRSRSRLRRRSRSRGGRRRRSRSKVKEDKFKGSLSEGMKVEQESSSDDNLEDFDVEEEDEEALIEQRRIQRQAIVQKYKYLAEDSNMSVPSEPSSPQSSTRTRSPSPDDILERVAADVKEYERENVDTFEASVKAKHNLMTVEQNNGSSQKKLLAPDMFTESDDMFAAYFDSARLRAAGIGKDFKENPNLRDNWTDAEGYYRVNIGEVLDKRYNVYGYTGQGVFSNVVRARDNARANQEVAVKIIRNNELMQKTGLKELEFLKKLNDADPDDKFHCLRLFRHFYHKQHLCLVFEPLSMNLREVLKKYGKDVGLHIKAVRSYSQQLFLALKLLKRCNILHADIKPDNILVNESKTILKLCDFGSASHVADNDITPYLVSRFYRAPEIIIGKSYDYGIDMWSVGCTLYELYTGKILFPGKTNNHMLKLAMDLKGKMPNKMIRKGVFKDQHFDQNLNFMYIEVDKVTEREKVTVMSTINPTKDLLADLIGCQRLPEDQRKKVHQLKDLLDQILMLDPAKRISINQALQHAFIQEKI
Sequence of UniProt Q02763 (whole entry, looked up): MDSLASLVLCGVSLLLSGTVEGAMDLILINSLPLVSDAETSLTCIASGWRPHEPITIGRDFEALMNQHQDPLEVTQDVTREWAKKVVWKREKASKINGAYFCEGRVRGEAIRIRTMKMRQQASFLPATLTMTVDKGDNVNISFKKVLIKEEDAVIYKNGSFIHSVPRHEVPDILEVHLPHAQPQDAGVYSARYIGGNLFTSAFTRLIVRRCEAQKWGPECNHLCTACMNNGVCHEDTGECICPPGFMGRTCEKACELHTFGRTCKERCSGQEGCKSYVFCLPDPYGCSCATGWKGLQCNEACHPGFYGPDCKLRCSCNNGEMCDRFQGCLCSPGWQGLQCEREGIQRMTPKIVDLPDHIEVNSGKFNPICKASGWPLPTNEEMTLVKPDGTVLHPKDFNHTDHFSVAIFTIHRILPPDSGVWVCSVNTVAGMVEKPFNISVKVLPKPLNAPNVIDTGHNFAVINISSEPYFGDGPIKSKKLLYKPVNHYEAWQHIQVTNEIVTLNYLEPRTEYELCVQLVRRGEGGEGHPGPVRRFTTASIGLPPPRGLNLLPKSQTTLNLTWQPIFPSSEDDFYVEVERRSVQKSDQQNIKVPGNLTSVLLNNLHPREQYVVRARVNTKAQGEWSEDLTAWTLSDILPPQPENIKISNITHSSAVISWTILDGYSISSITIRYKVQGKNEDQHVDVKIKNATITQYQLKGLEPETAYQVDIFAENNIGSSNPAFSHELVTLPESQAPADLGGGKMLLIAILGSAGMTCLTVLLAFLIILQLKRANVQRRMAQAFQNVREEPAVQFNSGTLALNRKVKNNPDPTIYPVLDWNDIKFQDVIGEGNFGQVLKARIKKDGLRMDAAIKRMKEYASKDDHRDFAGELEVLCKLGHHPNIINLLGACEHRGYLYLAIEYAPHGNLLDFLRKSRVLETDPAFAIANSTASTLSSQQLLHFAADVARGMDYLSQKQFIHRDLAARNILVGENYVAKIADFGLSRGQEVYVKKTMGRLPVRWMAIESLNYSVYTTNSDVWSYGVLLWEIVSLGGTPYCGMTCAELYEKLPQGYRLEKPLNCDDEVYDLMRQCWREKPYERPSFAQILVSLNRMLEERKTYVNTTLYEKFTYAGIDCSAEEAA
Sequence of UniProt O75582 (whole entry, looked up): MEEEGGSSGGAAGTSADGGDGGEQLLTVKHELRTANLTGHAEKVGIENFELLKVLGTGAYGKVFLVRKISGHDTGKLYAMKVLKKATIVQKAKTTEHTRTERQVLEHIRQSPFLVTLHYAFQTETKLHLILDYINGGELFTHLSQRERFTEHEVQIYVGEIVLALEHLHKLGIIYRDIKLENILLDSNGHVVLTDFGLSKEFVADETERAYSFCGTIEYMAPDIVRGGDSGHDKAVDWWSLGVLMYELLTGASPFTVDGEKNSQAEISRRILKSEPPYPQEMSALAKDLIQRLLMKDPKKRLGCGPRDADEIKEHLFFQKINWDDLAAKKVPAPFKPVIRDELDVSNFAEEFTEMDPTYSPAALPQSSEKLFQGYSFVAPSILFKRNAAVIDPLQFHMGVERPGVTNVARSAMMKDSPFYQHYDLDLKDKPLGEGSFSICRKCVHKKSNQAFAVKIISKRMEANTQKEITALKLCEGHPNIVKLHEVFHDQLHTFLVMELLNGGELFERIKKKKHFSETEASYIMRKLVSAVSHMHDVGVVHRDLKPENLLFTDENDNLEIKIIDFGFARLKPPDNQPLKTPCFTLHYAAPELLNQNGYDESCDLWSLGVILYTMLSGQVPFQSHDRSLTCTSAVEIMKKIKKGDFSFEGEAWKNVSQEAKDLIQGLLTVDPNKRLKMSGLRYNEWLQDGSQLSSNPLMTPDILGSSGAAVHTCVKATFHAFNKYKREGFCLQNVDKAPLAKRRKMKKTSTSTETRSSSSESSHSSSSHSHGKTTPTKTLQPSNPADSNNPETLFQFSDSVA
Sequence of UniProt P78368 (whole entry, looked up): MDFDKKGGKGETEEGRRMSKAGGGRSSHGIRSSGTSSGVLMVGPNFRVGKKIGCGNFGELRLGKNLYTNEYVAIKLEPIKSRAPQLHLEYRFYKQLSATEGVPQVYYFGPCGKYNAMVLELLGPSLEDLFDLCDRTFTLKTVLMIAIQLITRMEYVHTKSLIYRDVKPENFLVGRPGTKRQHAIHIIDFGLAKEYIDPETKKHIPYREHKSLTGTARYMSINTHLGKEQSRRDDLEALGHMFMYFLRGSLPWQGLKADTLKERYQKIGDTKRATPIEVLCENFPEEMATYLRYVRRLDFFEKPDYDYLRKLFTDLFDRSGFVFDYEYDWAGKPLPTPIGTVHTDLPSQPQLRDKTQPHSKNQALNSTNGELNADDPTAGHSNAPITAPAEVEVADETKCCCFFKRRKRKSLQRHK

Block 1
Species: human
Medium: microsomes or S9
Concentration: 2 µM
Time: 0.5 h
The remaining compound of Cc1cc(S(=O)(=O)Nc2c[nH]c(=O)c(C)c2)sc1Cl is reported as 67.5%.
O=C(c1ccc2[nH]cnc2c1)N1CCc2nc3cc(-c4ccccc4Cl)[nH]n3c(=O)c2C1 gave a remaining compound of 83.5%.
The remaining compound of CCCNC(=O)NC(=O)CNC1(C(=O)OC(C)(C)C)CCCC1 is reported as 1.91%.
With c1ccc(C2CC(c3cccs3)Nc3ncnn32)cc1 (centres unmarked) the remaining compound was 51.5%.
The remaining compound of Cc1cnn(C2CCN(C(=O)c3ccc(-c4cc[nH]n4)s3)C2)c1 (centres unmarked) is reported as 64.4%.
COc1ccccc1N1C(=O)c2cc3ccccc3n2CC1(C)C(=O)NC1CCCCCCC1 (centres unmarked) gave a remaining compound of 0.562%.
The remaining compound of CCC(CC)C1CC(NC(=O)Nc2c(C)ccn(C)c2=O)CCO1 (centres unmarked) is reported as 77%.

Block 2
SMILES: COc1cc(C(=O)N2CCC(N3CCN(C)CC3)CC2)ccc1Nc1ncc2c(n1)N(C)c1ccccc1C(=O)N2C
human PBMC; probe labeling, inhibitor, KiNativ profiling; cell lysate; concentration not given, domain 1, LYS1 site, together with: ADP acyl-phosphate probe 1 µM — inhibition: 2.2%.
It gave 6.4% for inhibition (MAP2K1 and MAP2K2 human; KiNativ profiling; human PBMC; 1 µM, LYS2 site, together with: ADP acyl phosphate probe).
The inhibition was 4.5% (mouse FYN/SRC/YES; probe labelling, KiNativ ATP probe; mouse brain lysate; 0.1 µM, activation loop site).
For mouse ILK; probe labelling, KiNativ ADP probe; mouse brain lysate; 0.1 µM, kinase domain ISMADVkFSFQCPGR: inhibition read 15.7%.
For human PBMC; probe labeling, inhibitor, KiNativ profiling; cell lysate; concentration not given, domain 1, LYS1 site, together with: ADP acyl-phosphate probe 0.1 µM: inhibition read -4.2%.

Block 3
SMILES: CO[C@H]1CC[C@H](CNc2ccc(S(=O)(=O)NC(=O)c3ccc(N4CCN(CC5=C(c6ccc(Cl)cc6)CC(C)(C)CC5)CC4)cc3Oc3cnc4[nH]ccc4c3)cc2[N+](=O)[O-])CC1
Effect on: cell-free assay
Method: competition with immobilised ligand
Concentration: 1 µM
For EPHB6 (Homo sapiens, UniProt O15197): remaining binding read 87%.
The remaining binding was 100% (Tyrosine-protein kinase ABL1, non-phosphorylated (ABL1, Homo sapiens, UniProt P00519, T315I)).
For FLT3 (Homo sapiens, UniProt P36888, N841I): remaining binding read 100%.
For SGK1 (Homo sapiens, UniProt O00141): remaining binding read 100%.
TEK (Homo sapiens, UniProt Q02763) — remaining binding: 69%.
CSNK1G2 (Homo sapiens, UniProt P78368) — remaining binding: 80%.
It gave 100% for remaining binding (PRPF4B (Homo sapiens, UniProt Q13523)).
It gave 78% for remaining binding (PRKACA (Homo sapiens, UniProt P17612)).
It gave 100% for remaining binding (FLT3 (Homo sapiens, UniProt P36888, R834Q)).
It gave 78% for remaining binding (MAP3K5 (Homo sapiens, UniProt Q99683)).
The remaining binding was 100% (MAP3K7 (Homo sapiens, UniProt O43318)).
PNCK (Homo sapiens, UniProt Q6P2M8) — remaining binding: 81%.
Ribosomal protein S6 kinase alpha-5, C-terminal kinase domain (RPS6KA5, Homo sapiens, UniProt O75582) — remaining binding: 90%.
LIM domain kinase 1 (LIMK1, Homo sapiens, UniProt P53667) — remaining binding: 89%.
The remaining binding was 100% (EPHA2 (Homo sapiens, UniProt P29317)).

Block 4
Target: Beta-1 adrenergic receptor (ADRB1, Homo sapiens, UniProt P08588)
Sequence of UniProt P08588 (whole entry, looked up): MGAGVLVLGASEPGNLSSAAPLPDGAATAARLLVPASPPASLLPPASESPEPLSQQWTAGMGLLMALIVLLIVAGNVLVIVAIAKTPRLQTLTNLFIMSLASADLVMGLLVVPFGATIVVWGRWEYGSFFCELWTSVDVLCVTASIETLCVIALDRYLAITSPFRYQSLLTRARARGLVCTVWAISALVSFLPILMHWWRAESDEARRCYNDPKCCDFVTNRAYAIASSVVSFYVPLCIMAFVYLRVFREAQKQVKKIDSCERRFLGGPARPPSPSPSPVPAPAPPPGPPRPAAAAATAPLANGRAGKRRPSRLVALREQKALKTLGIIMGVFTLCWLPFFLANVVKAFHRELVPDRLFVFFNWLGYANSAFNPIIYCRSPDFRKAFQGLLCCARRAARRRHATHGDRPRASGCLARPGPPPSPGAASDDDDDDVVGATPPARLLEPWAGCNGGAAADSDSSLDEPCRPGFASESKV
Mode: agonist
O=C(CSc1nc2ccccc2n1CCc1ccccc1)c1ccc(O)c(O)c1 gave an EC50 of at least 100 µM.
With O=c1oc2ccccc2cc1-c1nc2c(s1)CCc1ccccc1-2 the EC50 was at least 100 µM.
The EC50 of O=c1ccn(Cc2cnn(-c3ccccc3)n2)c2ccccc12 is reported as at least 100 µM.
O=C(Nc1nnc(-c2ccco2)o1)c1cc(-c2ccccc2)nc2ccccc12 has an EC50 of at least 100 µM.
With COc1ccccc1N1CCN(C(C)C(=O)Nc2ccc(F)cc2)CC1 (centres unmarked) the EC50 was at least 100 µM.

Some of these lines once more (block 1):
The remaining compound of Cc1cc(S(=O)(=O)Nc2c[nH]c(=O)c(C)c2)sc1Cl is reported as 67.5%.
O=C(c1ccc2[nH]cnc2c1)N1CCc2nc3cc(-c4ccccc4Cl)[nH]n3c(=O)c2C1 gave a remaining compound of 83.5%.
The remaining compound of CCCNC(=O)NC(=O)CNC1(C(=O)OC(C)(C)C)CCCC1 is reported as 1.91%.
With c1ccc(C2CC(c3cccs3)Nc3ncnn32)cc1 (centres unmarked) the remaining compound was 51.5%.
